# Published values pooled from the literature.
# Parts stem from different laboratories: compare values within a part only. Changes are numbered by the printed parent chain.

# Block 1
# Target: ABI1, truncated, D143A, DHFR fusion (Arabidopsis thaliana)
# Technique: DHFR PCA, deep sequencing
# Sample: yeast
# Notes: methotrexate growth selection, single substitutions
# With: (+)-ABA 200 µM
# Relative to: wild-type fitted maximum
# Direction: higher = stronger binding
# Starting sequence: PYL1, truncated, DHFR fusion (Arabidopsis thaliana); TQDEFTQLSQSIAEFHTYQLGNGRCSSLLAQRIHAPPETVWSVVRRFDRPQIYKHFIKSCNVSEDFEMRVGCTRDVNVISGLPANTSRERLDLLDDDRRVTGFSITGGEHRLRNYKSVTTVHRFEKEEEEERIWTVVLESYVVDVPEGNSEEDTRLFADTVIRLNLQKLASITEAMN; partner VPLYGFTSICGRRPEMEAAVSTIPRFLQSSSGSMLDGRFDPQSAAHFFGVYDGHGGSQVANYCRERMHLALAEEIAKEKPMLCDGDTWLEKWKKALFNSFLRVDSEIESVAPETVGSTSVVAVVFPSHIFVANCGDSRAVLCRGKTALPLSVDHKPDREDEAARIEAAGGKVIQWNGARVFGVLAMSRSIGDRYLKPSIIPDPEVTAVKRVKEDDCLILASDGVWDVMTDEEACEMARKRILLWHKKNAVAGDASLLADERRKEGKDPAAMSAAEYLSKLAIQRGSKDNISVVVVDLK
Substitution,relative binding score
P36W,70.1%
V142Y,77.2%
E109P,52.2%
Q167T,96.3%
K126W,98.8%
C72I,98.9%
M176Y,92%
V121E,3.56%
V100R,74.5%
R123N,101%
Q10L,92.1%
I162A,26.6%
L8S,61.6%
N77F,106%
L20R,98.1%
Y115K,-14.6%

# Block 2
# Target: Histone acetyltransferase KAT6A, winged helix 1, GST fusion (KAT6A, Homo sapiens, UniProt Q92794, residues 1-85)
# Technique: protein binding microarray
# Form: double-stranded DNA, one strand shown
# Sample: in vitro
# Tested at: not given
# Notes: 8-mer, flanks averaged, mean of 2 arrays, mostly near background
# Relative to: not given
# Direction: higher = stronger binding
# Residues (chain): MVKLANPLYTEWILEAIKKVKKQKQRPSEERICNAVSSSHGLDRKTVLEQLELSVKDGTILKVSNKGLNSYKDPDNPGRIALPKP
Oligonucleotide,E-score
GATGCTAA,-0.00441
GCACGAGA,0.0499
CGCACCAG,0.174
AGTTGAAT,-0.136
CGGAATAC,0.113
AGCGCTCG,0.348
ATCAGATC,-0.0447
GTGGCTAA,-0.0146
CGTTCGAA,-0.112
AATCTCTC,-0.0722
CCCTGGAG,-0.243
TAAACTTA,-0.197
ACATGCGG,0.262
AGCCAACG,0.0514
ATCTCCAG,-0.269
ACGGATGA,0.0512
AGTTAGCC,0.0553
CCCCAAGG,-0.125

# Block 3
# Target: Sal-like protein 4, full length isoform B (SALL4, Homo sapiens, UniProt Q9UJQ4-2, residues 1-616)
# Technique: universal PBM
# Form: double-stranded DNA, one strand shown
# Sample: in vitro
# Tested at: not given
# Notes: 8-mer, flanks averaged, mean of replicates
# Direction: higher = stronger binding
Oligonucleotide,E-score
ATGTAGGA,0.0763
TGACCAAA,0.137
AAGACTGA,0.0996
CGAGGACC,-0.213
TAGCGCAA,0.115
AAAATGTC,0.251
CCGCCACC,-0.231
GTAGCGCA,-0.109
CCCCTAGG,-0.265
AACCGCCC,-0.313
CAAGCCTC,-0.28
GCCTGAAA,0.0672
CGAAATCA,0.136
GGCAGACC,-0.334

# Block 4
# Target: Hepatocyte nuclear factor 3-alpha (Foxa1, Mus musculus, UniProt P35582, residues 1-468, full length assumed)
# Technique: EMSA with sequencing
# Form: double-stranded DNA, one strand shown
# Sample: in vitro
# Tested at: 10 and 20 nM
# Notes: whole designed probe, mean of two concentrations, ends assumed
# Relative to: negative control set to 0
# Direction: higher = stronger binding
# Shared flanks, not repeated: GTGAGCGGTGCCCATTGATGGGGAAC … TTTCACTGGGATCGTGGGGAC
# Residues (chain): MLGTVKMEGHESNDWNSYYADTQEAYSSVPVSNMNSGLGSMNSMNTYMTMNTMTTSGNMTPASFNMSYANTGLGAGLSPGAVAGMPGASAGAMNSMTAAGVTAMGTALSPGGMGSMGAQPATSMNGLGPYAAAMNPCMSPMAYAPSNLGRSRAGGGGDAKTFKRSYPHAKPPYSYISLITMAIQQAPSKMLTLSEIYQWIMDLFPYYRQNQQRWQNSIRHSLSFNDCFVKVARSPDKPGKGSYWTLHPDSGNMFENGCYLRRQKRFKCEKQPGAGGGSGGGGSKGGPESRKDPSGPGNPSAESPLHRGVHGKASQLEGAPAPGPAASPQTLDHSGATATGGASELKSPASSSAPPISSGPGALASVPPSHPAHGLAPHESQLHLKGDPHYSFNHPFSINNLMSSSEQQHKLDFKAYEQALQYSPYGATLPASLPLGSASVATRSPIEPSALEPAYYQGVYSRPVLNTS
Oligonucleotide,normalised bound fraction [ratio]
CTTATAATATTTCTTATGATCACCAAGTCTAGTAAAAAATTAGATTATTATATATGAGTGAATCTCAGATTTATATGTGAATAATTCATCTATGTTTACTTAGGTAATTTCCCTTACTAATCCTAAAATAATACTTGAGGTAGCAGGAGATAACCAACTTTAAAATTCTGTATCTGCATTATGATTTCCATTT,0.445
CACTCAGCTGTTTTCTTAAACTTGGTTGAATAACTGGTATTCTTCCTGCTCACAAAGTCTTTGTTAGTGTGCATATTGCAAAACCATCCTAAGTAAACAGTCTGTGTCATCTGTATTAAAGGGAAGTTATGCATGGATTAGTGTATAATAGCATGGGTTAGGGAGAAAAATGAGTCACCAAAGTAGCTGGTTC,0.43
TATAGACTGCGGCAGCCCAGTTCAAAAGAAACAGGCTTTAAAGAAAAGCAAACTGGTGTCCAATGACATCAAATAGAACCAGGAGCTCCAAAGTACTTTAGCTTCTTGTCTCTGTTCTTATTTATTTATTGCTGTTGCTCACGCCAGTCAGGGCAGCAGGGGGCTGGCAGGCTTACTCATGGGCCCAGATAAG,0.285
CACCGCGCTCGCACGGCTTTGTCCGTGCTACAAAGCAGCCTGTTAAACTATTGGAACTAATGCGCCGCAGCTGCGCGAGTGACTTCTGCTGCTTATGTACATAAAAAGGGGGGAGGGCTTCCTGTAACCATCAGATGCCTGCTGCTGGGTTGTTTGGCTAGTCTTTCCATTTGCTTATTCCTGAATCCAAAGG,0.324
AGGCACAAGGTATGAATCACTAAGAATCTAGCAGCAGCTCTAGAAGCCTCCAAAGATAATTGCACTTCCCCAACAGGGGGACGGGGGTGGAGTGTAAATATGAAAGAACAGTGGATGGCCTAAATCAGTATGTGTCACTCTTTGTAAAGAGCCACAAGTGTTTGACTAGGGAAAAAGGAAAAGAGGCGAGAGT,0.106
AAAAAGTGAAAGAAAAAGAAAAAAAGGAAGAACCCTGTTATAGATTAGAAAGAGCACTGGACTTGGGGTCAGGATGTTTGTGTAAATGTCTCTGTTGACCTTTGGTGAGTCAGCCTTTCGTAAACTCCAGCCACAGCATGACTGCATCACCGGTTCCTTTGAAGCCCCTATGCTCCATCAACCTGCTGGAACA,0.0881
GGGTCCCGGGCGGCGGCAGGAATGCAGGAATGCGCACAGGCTGTGGGCGGCCAGGAGGGAGTCCCGGCGCCTGCCCCAGGGCGGAAGTGTCTTTGTGTACCCTGTCCAACACCTCCCCCCGCCAGCGCGGAAGGCCGGGCTACCTGCGCGCCTGGCAGCGCCTGGCAGCCGGCTGGGTGGGGCGCAGGGGAGC,-0.00844

# Block 5
# Target: Fragile X messenger ribonucleoprotein 1, C-terminal low-complexity region (Fmr1, Mus musculus, UniProt P35922)
# Technique: RNA Bind-n-Seq
# Form: RNA
# Sample: in vitro
# Tested at: 200 nM
# Notes: whole 134-nt RNA, ends assumed
# With: 150 mM KCl
# Relative to: input library
# Direction: higher = stronger binding
# Shared flanks, not repeated: GGGAGUUCUACAGUCCGACGAUC … UGGAAUUCUCGGGUGUCAAGG
Oligonucleotide,log2 enrichment
AGUCCUGUGCUACACAUCGUAUGUACCGAAUCGGGGUUUGGGGUUUUUGGGGUGGGGAAAGUAUUAUGUUACGCCGUUCGGAUCUGCACU,1.2
UCAAGUCCUGUGCUACACAUCGUAUGUACCGAAUCGGGAGGGAAAGGGUUUGGGAAAGUAUUAUGUUACGCCGUUCGGAUCUGCACUUCC,1.07
UAACUUUAGAGGAGGAUCUGAUGCAUAUGGCAGUGGACGUGGAUUUGGGGAUGGCUAUAAUGGGUAUGGAGGAGGACCUGGAGGUGGCAA,0.498
CUGUGCUACACAUCGUAUGUACCGAAUCGGGGAAAAAGGGGUUUUUUUGGGGUUUUUGGGGAAAGUAUUAUGUUACGCCGUUCGGAUCUG,0.0229
CAAGUCCUGUGCUACACAUCGUAUGUACCGAAUCGGUUUGGGUUUGGGUUUGGGGAAAGUAUUAUGUUACGCCGUUCGGAUCUGCACUUC,-0.0314
CACAGACAACACGCACCCACACAGACACAGAGGGAAGGGGAAAGGAUGGGGACAGGGUGCACAGCAGGGCGGGGUAGGACCCCAGCCCCU,1.05
UAACUUUAGAGGAGGAUCUGAUGGAUAUGGCAGUGGACGUGGAUUUGGGGAUGGCUAUAAUGGGUAUGGAGGAGGACUUGGAGGUGGCAA,0.098
CACAGACAACACGCACCCACACAGACACAGAGGGAAGGGGUUGGGAUGGGUACAGGGUGCACAGCAGGGCGGGGUAGGACCCCAGCCCCU,1.32
GUCCUGUGCUACACAUCGUAUGUACCGAAUCGGGUUUUUUUGGGUUUGGGUUUUUGGGAAAGUAUUAUGUUACGCCGUUCGGAUCUGCAC,-0.0103
UUCCUCAAGUCCUGUGCUACACAUCGUAUGUACCGAAUCGGUGGUGGUGGAAAGUAUUAUGUUACGCCGUUCGGAUCUGCACUUCCAGCA,-0.306

# Block 6
# Target: Phosphate system positive regulatory protein PHO4, full length, GST-tagged (PHO4, Saccharomyces cerevisiae, UniProt P07270, residues 1-312)
# Technique: competition protein-binding microarray
# Form: double-stranded DNA, one strand shown
# Sample: in vitro
# Tested at: 2 µM
# Notes: whole 60-bp probe, lowest competitor level
# With: Cbf1 competitor, 0.05 µM
# Direction: higher = stronger binding
# Shared flanks, not repeated: … GTCTTGATTCGCTTGACGCTGCTG
# Construct (chain): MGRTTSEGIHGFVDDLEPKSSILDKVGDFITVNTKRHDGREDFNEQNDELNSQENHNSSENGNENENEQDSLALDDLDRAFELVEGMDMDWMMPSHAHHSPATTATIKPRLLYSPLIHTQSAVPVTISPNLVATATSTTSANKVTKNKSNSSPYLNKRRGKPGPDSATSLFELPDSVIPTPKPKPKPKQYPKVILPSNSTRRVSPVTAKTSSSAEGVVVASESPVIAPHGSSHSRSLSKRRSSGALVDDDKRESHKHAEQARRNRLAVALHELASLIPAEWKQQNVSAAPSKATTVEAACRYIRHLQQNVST
Oligonucleotide,fluorescence intensity [a.u.]
ACTAGTGGCGACACTCAGGTGGTCCTCGGTGCCTTA,3770
TTAATACTGCCTGACGGCGTGCCAGAACAAGGAGCA,7340
CTTCGCGCCACATCGCACGGGTGCAGGAACAACTGT,8520
TACGTCCAGCCAAATCACATGATACTGGCTTGAACA,5650
CATACCCAACCTTTTCACGTGATTTAAGATATTTGT,14100
AAAAGAGGTACGTTGCGCGTGTTTCTAGGGAGAAGA,8780
TGGACCTGGCATACTACCGTGCCAGTAAACGTAGGA,5340
AAAGCGGTAATTTGAATAGTGGGTGCAGATATCTAT,4300
TCATGGTGAATTTTGCACGTGGCCGTCCAAGTCCTT,15200
CATACCCAACCTTGTAGTGTGGGTGAAGATATTTGT,5630
CATACCCAACCTTGATAAGTGGGTGAAGATATTTGT,3840
AGAATAATGTAAGGTACCGTGGGTACCGTACCATCA,6120
CGTCCTAGTGATTGTCACACAACTTCCATGAGGAAG,4380
CCCACAAAGGGGCGCCGCGTGGTGATACGTACTGGA,10500
CGGGGTTAAGTTTGTCACTGGACTTGCTTGCAGCAG,3270
CGGGGTTAAGTTTGGGACGTGGGTGGCTTGCAGCAG,7590
AGATGGAGAACCTGGCACGTGTACAAGAGTACAAGG,16900
AAATTACTAAGTTGTCCGGTGGGTGACGCCGTATGA,3410
AAATTACTAAGTTGCGGAGTGGGTGACGCCGTATGA,3950

# Some of these lines once more (block 3):
Oligonucleotide,E-score
AAGACTGA,0.0996
CCGCCACC,-0.231
CGAAATCA,0.136
GGCAGACC,-0.334
AACCGCCC,-0.313
GCCTGAAA,0.0672
